Experimental data from different studies.
Each line is one published result; not all experiments were run side by side. ± gives the spread as reported.
Cell line: NCI-H460

| SMILES | assay | system | conditions | IC50 [µM] |
| --- | --- | --- | --- | --- |
| CCC1=C(CC)C2=[N+]3C1=Cc1c(CC)c(CC)c4[n]1[Ir-3]31([C]#[N+]c3ccc(OC)cc3)([C]#[N+]c3ccc(OC)cc3)[n]3c(c(CC)c(CC)c3=CC3=[N+]1C(=C4)C(CC)=C3CC)=C2.F[B-](F)(F)F | cytotoxicity | – | 1 h, added: visible light 2.8 mW/cm2 | 0.12 ± 0.02 |
| CC(=O)O[C@@H]1CC[C@@]2(C)[C@@H](CC[C@]3(C)[C@@H]2C(=O)C=C2[C@@H]4[C@@H](C)[C@H](C)CC[C@]4(C)CC[C@]23C)[C@@]1(C)C(=O)NCCNC(=O)C1CCCCC1 | cell growth or viability, MTT | – | 48 h | 14.9 |
| CCC1=C(CC)C2=[N+]3C1=Cc1c(CC)c(CC)c4[n]1[Ir-3]31([Cl])([C]#[O+])[n]3c(c(CC)c(CC)c3=CC3=[N+]1C(=C4)C(CC)=C3CC)=C2 | cytotoxicity | – | 1 h, added: visible light 2.8 mW/cm2 | 19.7 ± 1 |
| CCOC12C(O)C(OC)C3(O)CC(O)(C1C3OC(=O)c1ccccc1)C13C(OC)CC(O)C4(COC)CN(C)C1C2C(OC)C43 (centres unmarked) | cell growth or viability, MTT | – | – | 19.4 |
| Clc1nc2cc3c(cc2cc1-c1nc2cc(Br)ccc2[nH]1)OCO3 | cell growth or viability, MTT | – | 48 h | > 100 |
| CCC1=C(CC)C2=[N+]3C1=Cc1c(CC)c(CC)c4[n]1[Ir-3]31([n+]3ccccc3)([n+]3ccccc3)[n]3c(c(CC)c(CC)c3=CC3=[N+]1C(=C4)C(CC)=C3CC)=C2.Cl | cell growth or viability | – | dark | 0.11 |
| NS(=O)(=O)c1ccc(Nc2nccc(-c3cn(C4CCCCC4)nn3)n2)cc1 | cell growth or viability, SRB | – | 72 h | 4.62 |
| CCCCCCCC(=O)NCCNC(=O)[C@@]1(C)[C@H](O)CC[C@@]2(C)[C@H]1CC[C@]1(C)[C@@H]2C(=O)C=C2[C@@H]3[C@@H](C)[C@H](C)CC[C@]3(C)CC[C@]21C | cell growth or viability, MTT | – | 48 h | 14.1 |
| COCC12CCC(OC)C34C5CC6(O)C(OC)C(=O)C(C5C6O)C(C(OC)C13)C4N(C)C2 (centres unmarked) | cell growth or viability, MTT | – | – | 14.4 |
| CC(=O)O[C@@H]1CC[C@@]2(C)[C@@H](CC[C@]3(C)[C@@H]2C(=O)C=C2[C@@H]4[C@@H](C)[C@H](C)CC[C@]4(C)CC[C@]23C)[C@@]1(C)C(=O)NCCNC(=O)c1ccc(C)cc1 | cell growth or viability, MTT | – | 48 h | 14.1 |
| CC(=O)OC[C@H]1O[C@@H](Oc2ccc(C#[C][Pt+])cc2)[C@H](OC(C)=O)[C@@H](OC(C)=O)[C@@H]1OC(C)=O.O=S(=O)([O-])C(F)(F)F.c1ccc(-c2cccc(-c3ccccn3)n2)nc1 | cell growth or viability | – | 72 h | 17 |
| COc1ccc(-c2nnc(-c3ccccn3)[nH]2)cc1OC | cell growth or viability, MTT | – | 24 h | > 100 |
| Fc1ccc2[nH]c(-c3cc4cc5c(cc4nc3Cl)OCO5)nc2c1 | cell growth or viability, MTT | – | 48 h | > 100 |
| COc1ccc(CN2C(=O)C(=O)c3cc(NC(C)=O)ccc32)cc1 | cell growth or viability, MTT | – | 48 h | 28.4 |
| O=C(O)Cc1ccccc1Nc1c(Cl)cccc1Cl.O=C(O)Cc1ccccc1Nc1c(Cl)cccc1Cl.c1cnc2c(c1)ccc1cccnc12.c1cnc2c(c1)ccc1cccnc12 | cell viability, MTT | – | 48 h | 3.87 ± 0.04 |
| CC(=O)O[C@@H]1CC[C@@]2(C)[C@@H](CC[C@]3(C)[C@@H]2C(=O)C=C2[C@@H]4[C@@H](C)[C@H](C)CC[C@]4(C)CC[C@]23C)[C@@]1(C)C(=O)NCCNC(=O)OC(C)(C)C | cell growth or viability, MTT | – | 48 h | > 30 |
| COc1ccc2nc(Cl)c(-c3nc4ccccc4[nH]3)cc2c1 | cell growth or viability, MTT | – | 48 h | > 100 |
| C[C@H]1[C@H](C)CC[C@]2(C)CC[C@]3(C)C(=CC(=O)[C@@H]4[C@@]5(C)CC[C@@H](O)[C@](C)(C(=O)NCCNC(=O)C6CCCCC6)[C@@H]5CC[C@]43C)[C@H]12 | cell growth or viability, MTT | – | 48 h | 18.1 |
| Fc1ccccc1/C=C/c1nc2ccccc2nc1N1CCOCC1 | cell growth or viability, MTT | – | 72 h | 19.5 |
| Clc1nc2ccccc2cc1-c1nc2ccccc2[nH]1 | cell growth or viability, MTT | – | 48 h | > 100 |
| Cc1ccc(C(=O)NCCNC(=O)[C@@]2(C)[C@H](O)CC[C@@]3(C)[C@H]2CC[C@]2(C)[C@@H]3C(=O)C=C3[C@@H]4[C@@H](C)[C@H](C)CC[C@]4(C)CC[C@]32C)cc1 | cell growth or viability, MTT | – | 48 h | 4.31 |
| O=C(NCCCCCCCNc1n[n+]([O-])c2ccccc2[n+]1[O-])C(F)(F)F | cytotoxicity, MTT | 10% FBS medium | 6 h + 18 h, hypoxia 3% O2 | 46.8 ± 20.3 |
| N#Cc1c(-c2ccc(Cl)cc2)cc(-c2cccc3ccccc23)nc1Nc1ccc(Nc2nc(-c3cccc4ccccc34)cc(-c3ccc(Cl)cc3)c2C#N)cc1 | cell growth or viability, MTT | – | 72 h | 0.698 |
| O=C(NCCCNc1n[n+]([O-])c2ccccc2[n+]1[O-])C(F)(F)F | cytotoxicity, MTT | – | 24 h, normoxia 20% O2 | 89.8 ± 9.8 |
| CC(=O)O[C@@H]1CC[C@@]2(C)[C@@H](CC[C@]3(C)[C@@H]2C(=O)C=C2[C@@H]4[C@@H](C)[C@H](C)CC[C@]4(C)CC[C@]23C)[C@@]1(C)C(=O)NCCNC(=O)C1CC1 | cell growth or viability, MTT | – | 48 h | 7.25 |
| COc1ccc2nc(Cl)c(-c3nc4cc(C)c(C)cc4[nH]3)cc2c1 | cell growth or viability, MTT | – | 48 h | 38.2 |
| O=C(CCCCCCN1CCN(c2ccc(Nc3ncc(F)c(-c4cn(C5CCCC5)nn4)n3)cc2)CC1)NO | cell growth or viability, SRB | – | 72 h | 1.2 |
| Clc1cc2nc(-c3cc4ccccc4nc3Cl)[nH]c2cc1Cl | cell growth or viability, MTT | – | 48 h | 15.1 |
| CN1CCN(c2ccc(Nc3nccc(-c4cn(C5CCCC5)nn4)n3)cc2)CC1 | cell growth or viability, SRB | – | 72 h | > 10 |

Repeated from above:
| SMILES | assay | system | conditions | IC50 [µM] |
| --- | --- | --- | --- | --- |
| CCOC12C(O)C(OC)C3(O)CC(O)(C1C3OC(=O)c1ccccc1)C13C(OC)CC(O)C4(COC)CN(C)C1C2C(OC)C43 (centres unmarked) | cell growth or viability, MTT | – | – | 19.4 |
| CCCCCCCC(=O)NCCNC(=O)[C@@]1(C)[C@H](O)CC[C@@]2(C)[C@H]1CC[C@]1(C)[C@@H]2C(=O)C=C2[C@@H]3[C@@H](C)[C@H](C)CC[C@]3(C)CC[C@]21C | cell growth or viability, MTT | – | 48 h | 14.1 |
